Published values of several laboratories.
Target: Serine/threonine-protein kinase RIO1 (RIOK1, Homo sapiens, UniProt Q9BRS2)

Structure (SMILES)	test	conditions	how to read	remaining binding
COc1cc(Nc2nccc(-c3cnn4nc(OC)ccc34)n2)cc(C(F)(F)F)c1	binding, competition with immobilised ligand	1 µM	–	100%
Nc1ncc2c(n1)-c1c([nH]c3ccc(C4=CCOCC4)cc13)CCC2	binding, competition with immobilised ligand	1 µM	–	100%
CNC(=O)C1CCN(c2cc(C)c(F)cc2NC(=O)c2ccc(-c3cc(O)ccc3C)c(C)c2)CC1	binding, competition with immobilised ligand	1 µM	–	100%
C=CC(=O)N1CCc2ccc(-n3c(=O)ccc4cnc5ccc(-c6cnn(C)c6)cc5c43)cc21	KINOMEscan	1 µM	baseline: DMSO control	64%
Cc1cnc2nc1Nc1cccc(c1)COC/C=C/COCc1cc(ccc1OCCN1CCOCC1)N2	binding, competition with immobilised ligand	0.1 µM	–	100%
CNC1C[S+]2CC[S+]3CC[S+](C1)[Ru-4]321([N]=C=S)[n]2c3ccc(OC)cc3c3c4c(c5cc(F)c[n+]1c5c32)C(=O)NC4=O (centres unmarked)	KinomeScan	0.1 µM	baseline: untreated	100%
Cc1cc(NC(=O)[C@H](O)c2cc(F)cc(F)c2)ccc1-c1cnc(N)c(C(=O)NC(C)C)c1	binding, competition with immobilised ligand	1 µM	–	43%
C=CC(=O)N1CCCC(n2c(=O)c3ncccc3n(Cc3ccc(Oc4ccccc4)cc3)c2=O)C1 (centres unmarked)	cell-free assay, competition with immobilised ligand	1 µM	–	94%
C[C@]1(O)CCCN(c2nc(Nc3ccc(S(=O)(=O)N[C@H]4CC[C@H](CN5CCN(c6ccc(C7CCC(=O)NC7=O)cc6F)CC5)CC4)cc3)ncc2C(F)(F)F)C1 (some centres unmarked)	binding, competition with immobilised ligand	1 µM	–	2.7%
CC(C)=CC1OC(C)(C)C2C=C3C(=O)C(Cl)=CC(O)C3C3C(O)C4OC4C(=O)C132 (centres unmarked)	cell-free assay, competition with immobilised ligand	10 µM	–	52%
COc1cc(Nc2nc(C)cc(-c3cnn4nc(OC)ccc34)n2)cc(C(F)(F)F)c1	binding, competition with immobilised ligand	1 µM	–	89%
CCN1CCN(Cc2ccc(C(=O)Nc3ccc(C)c(NCc4cnc5[nH]ccc5c4OC)c3)cc2C(F)(F)F)CC1	binding, competition with immobilised ligand	1 µM	–	95%
Cc1ccc(-c2c(/C=C(\C#N)C(=O)NC(C)C)n(CCCO)c3ncnc(N)c23)cc1	cell-free assay, competition with immobilised ligand	1 µM	–	70%
COc1c(Cl)cccc1Nc1c(-c2ccncc2C#C[C@@]2(C)CCCN2C(=O)/C=C/CN(C)C)[nH]c2c1C(=O)NCC2	binding, competition with immobilised ligand	3 µM	–	91%

A few entries again:
Structure (SMILES)	test	conditions	how to read	remaining binding
C[C@]1(O)CCCN(c2nc(Nc3ccc(S(=O)(=O)N[C@H]4CC[C@H](CN5CCN(c6ccc(C7CCC(=O)NC7=O)cc6F)CC5)CC4)cc3)ncc2C(F)(F)F)C1 (some centres unmarked)	binding, competition with immobilised ligand	1 µM	–	2.7%
